{"data": "Assay results from different studies", "note": "Lines come from different studies, so protocols differ. Values joined by “and” are separate records of one study, mostly repeats; a detail may differ. Numbers after ± are the reported error."}
{"Molecule": "O=C(N/N=C1\\C(=O)Nc2ccc([N+](=O)[O-])cc21)N/N=C1\\C(=O)Nc2ccc([N+](=O)[O-])cc21", "tested on": "Influenza A virus H3N2", "test": "viral replication, MTS", "test system": "MDCK", "measurement": "EC50", "value": "33 ± 1.7 µM"}
{"Molecule": "CP(=O)(O)CCC(N)C(=O)O (stereo not drawn)", "tested on": "Lolium perenne", "setting": "60 g/ha, 13 days, LOLPE, post-emergence spray", "scale": "baseline: untreated (0%), complete kill (100%)", "measurement": "herbicidal activity", "value": "20%"}
{"Molecule": "O=C1/C(=N\\NC(=S)NN=Cc2ccccc2)c2ccccc2N1Cc1ccccc1", "tested on": "Influenza A virus H3N2", "test": "viral replication, visual CPE score", "test system": "MDCK", "measurement": "EC50", "value": "> 100 µM"}
{"Molecule": "Cc1noc(CC[C@@H](C)[C@H]2CC[C@H]3[C@@H]4[C@@H](O)C[C@@H]5C[C@H](O)CC[C@]5(C)[C@H]4CC[C@]23C)n1", "tested on": "Clostridioides difficile", "test": "spore germination, OD600", "test system": "NAP1", "setting": "20 min, added: 2000 µM taurocholate", "measurement": "minimum concentration for complete inhibition", "value": "50 µM"}
{"Molecule": "CC(=O)N[C@@H](CC(C)C)C(=O)NCC(=O)N[C@@H](Cc1ccc(O)cc1)C(=O)NCC(=O)N[C@@H](CCCCN)C(N)=O", "test": "DSC", "test system": "SOPC/cholesterol 7/3 bilayers", "setting": "5 mol%, pH 7.40", "measurement": "transition enthalpy", "value": "1.5 kcal/mol"}
{"Molecule": "NNC(=O)Cn1c2ccccc2c2cn[nH]c(=O)c21", "tested on": "MCF7", "test": "RT-PCR, measured: Bax", "setting": "5 µM, 48 h, normalised to β-actin", "scale": "baseline: untreated", "measurement": "fold change", "value": 3.39}
{"Molecule": "O=C(CN1c2c(n[nH]c2-c2cccc(Cl)c2)-c2ccccc2S1(=O)=O)NN=Cc1ccc(Cl)cc1Cl", "tested on": "HIV-1", "test": "viral replication", "test system": "PBMC", "measurement": "EC90", "value": "76.3 µM"}
{"Molecule": "CC[C@H](C)[C@H](NC(=O)[C@H](CCCCN)NC(=O)[C@H](CCC(=O)O)NC(=O)[C@H](CCCCN)NC(=O)[C@H](CO)NC(=O)[C@H](CCCCN)NC(=O)[C@H](CCCNC(=N)N)NC(=O)[C@H](Cc1ccccc1)NC(=O)[C@H](Cc1ccccc1)NC(=O)[C@H](CC(=O)O)NC(=O)CNC(=O)[C@H](CC(C)C)NC(=O)[C@@H](N)CC(C)C)C(=O)NCC(=O)N[C@@H](CCCCN)C(=O)N[C@@H](CCC(=O)O)C(=O)N[C@@H](Cc1ccccc1)C(=O)N[C@@H](CCCCN)C(=O)N[C@@H](CCCNC(=N)N)C(=O)N[C@H](C(=O)N[C@H](C(=O)N[C@@H](CCC(N)=O)C(=O)N[C@@H](CCCNC(=N)N)C(=O)N[C@H](C(=O)N[C@@H](CCCCN)C(=O)N[C@@H](CC(=O)O)C(=O)N[C@@H](Cc1ccccc1)C(=O)N[C@@H](CC(C)C)C(=O)N[C@@H](CCCNC(=N)N)C(=O)N[C@@H](CC(N)=O)C(=O)N[C@@H](CC(C)C)C(=O)N[C@H](C(=O)N1CCC[C@H]1C(=O)N[C@@H](CCCNC(=N)N)C(=O)N[C@H](C(=O)N[C@@H](CCC(=O)O)C(=O)N[C@@H](CO)C(=O)O)[C@@H](C)O)C(C)C)[C@@H](C)CC)C(C)C)[C@@H](C)CC", "tested on": "Staphylococcus aureus", "test system": "JE2 SAUSA300_0645 graR transposon mutant", "setting": "12.5% TSB", "scale": "baseline: wild type over mutant", "measurement": "MIC ratio", "value": "2 fold"}
{"Molecule": "CCC(CC)O[C@@H]1C=C(C(=O)O)C[C@H](N)[C@H]1NC(C)=O", "tested on": "influenza A virus", "test": "cytopathic effect, visual CPE score", "test system": "MDCK, H1N1", "measurement": "EC50", "value": "0.4 µM"}
{"Molecule": "Polymyxin B", "test": "LAL test", "test system": "human plasma", "setting": "60 min, 37 °C, 50% reduction, added: Pseudomonas aeruginosa LPS 0.5 ng/mL", "measurement": "endotoxin neutralizing concentration", "value": "84 ng/mL and < 100 ng/mL"}
{"Molecule": "pneumocandin I", "tested on": "Candida albicans", "test": "broth microdilution, resazurin", "test system": "ATCC 10231", "setting": "24 h, 35 °C", "measurement": "MIC", "value": "0.1 µg/mL"}
{"Molecule": "O=C1C=C(N(Cc2ccc(Cl)nc2)CC(F)F)CO1", "tested on": "mAb-19F2 (BALB/c mouse monoclonal antibody)", "test": "antibody binding, indirect competitive ELISA", "measurement": "IC50", "value": "> 1 µg/mL"}
{"Molecule": "C[C@]12CC[C@H]3[C@@H]([C@H](/C=C/C=C/C=C/[C@@H]4CC5=CC(=O)CC[C@]5(C)[C@H]5CC[C@]6(C)[C@@H](O)CC[C@H]6[C@H]45)CC4=CC(=O)CC[C@@]43C)[C@@H]1CC[C@@H]2O (relative stereo)", "tested on": "LNCaP", "setting": "added: testosterone or dihydrotestosterone", "measurement": "complete growth inhibition", "value": "0.25 to 0.5 µM"}
{"Molecule": "CC(N)C12CC3CC(CC(C3)C1)C2 (stereo not drawn)", "tested on": "influenza A virus", "test": "cytopathic effect, MTS", "test system": "MDCK, H1N1", "measurement": "EC50", "value": "> 200 µM"}
{"Molecule": "CN[C@@](C)(C[18F])C(=O)O", "test system": "SCID mouse SK-OV-3 xenograft, blood", "setting": "30 min, post injection", "measurement": "tissue uptake", "value": "1.1 ± 0.3 %ID/g"}
{"Molecule": "C#Cc1ccc2c(c1)C(c1ccccc1F)=NCc1c(-c3cnco3)ncn1-2", "test": "increase in zones cleared", "test system": "mouse, lactic acid-depressed nesting", "scale": "baseline: vehicle", "measurement": "effective dose", "value": "10 mg/kg"}
{"Molecule": "O=C1OC(c2ccc(O)c(S(=O)(=O)O)c2)(c2ccc(O)c(S(=O)(=O)O)c2)c2c(Br)c(Br)c(Br)c(Br)c21", "tested on": "OATP1B1 and OATP1B3", "test system": "human sandwich-cultured hepatocytes", "setting": "100 µM, 1 h pre-incubation then washout", "scale": "baseline: vehicle", "measurement": "[3H]pitavastatin accumulation", "value": "0.48 ± 0.13 fold"}
{"Molecule": "leucinostatin A2", "tested on": "MDA-MB-453", "test": "sulforhodamine B", "setting": "48 h, LAR subtype TNBC", "measurement": "GI50", "value": "0.0079 ± 0.0014 µM"}
{"Molecule": "O=C1Nc2ccccc2/C1=N/NC(=S)N/N=C1\\C(=O)Nc2ccccc21", "tested on": "influenza A virus", "test": "cytopathic effect, MTS", "test system": "MDCK, H1N1", "measurement": "EC50", "value": "61 ± 32 µM"}
{"Molecule": "COc1ccc(Cc2c(C)c(C#N)c3[nH]c4ccccc4n3c2=O)cc1", "tested on": "Vero", "test": "cell growth or viability", "measurement": "IC50", "value": "> 128 µg/mL"}
{"Molecule": "CC1(C)SC2C(NC(=O)C(NC(=O)C3=C(O)C4CCCN4C3=O)c3ccccc3)C(=O)N2C1C(=O)O (stereo not drawn)", "tested on": "Escherichia coli", "test": "broth microdilution", "test system": "BW25113, Mueller-Hinton broth", "setting": "added: 2,2'-bipyridyl 30 µg/mL", "measurement": "MIC", "value": "50 µg/mL"}
{"Molecule": "Cc1ccc2c(c1)/C(=N/NC(=O)N/N=C1\\C(=O)Nc3ccc(C)cc31)C(=O)N2", "tested on": "influenza A virus", "test": "cytopathic effect, visual CPE score", "test system": "MDCK, H1N1", "measurement": "EC50", "value": "> 20 µM"}
{"Molecule": "CCC[C@H](C(=O)c1ccc2c(c1)OCO2)N1CCCC1", "tested on": "anti-α-PVP/MDPV polyclonal antibody (rat)", "test": "binding, competitive radioimmunoassay", "test system": "rat serum, 11 weeks post-immunisation", "setting": "added: tritium-labelled drug", "measurement": "IC50", "value": "0.0039 ± 0.0008 µM"}
{"Molecule": "NC12CC3CC(CC(C3)C1)C2", "tested on": "dendritic cells", "test": "flow cytometry", "setting": "10 µg/mL, 24 h", "scale": "baseline: untreated cells", "measurement": "CD40 expression", "value": "increased"}
{"Molecule": "CC(=O)N[C@@H](CC(C)C)C(=O)N1CCC[C@H]1C(=O)N[C@@H](Cc1ccc(O)cc1)C(=O)N1CCC[C@H]1C(=O)N[C@@H](CCCCN)C(N)=O", "test": "DSC", "test system": "SOPC/cholesterol 6/4 bilayers", "setting": "15 mol%, pH 7.40", "measurement": "transition enthalpy", "value": "0.4 kcal/mol"}
{"Molecule": "Cc1c(Cc2ccc(C(C)(C)C)cc2)c(=O)n2c([nH]c3ccccc32)c1C#N", "tested on": "Vero", "test": "cell growth or viability", "measurement": "IC50", "value": "> 64 µg/mL"}
{"Molecule": "CC(C)c1ccc2c(c1)CC[C@H]1[C@](C)(CN)CCC[C@]21C", "tested on": "FF2441", "test": "cell growth or viability, MTS", "setting": "24 h", "measurement": "IC50", "value": "9.57 µM"}
{"Molecule": "NC12CC3CC(CC(C3)C1)C2", "tested on": "Influenza A virus H3N2", "test": "viral replication, visual CPE score", "test system": "MDCK", "measurement": "EC50", "value": "0.9 µM"}
{"Molecule": "Cc1ccc(-c2ncn(-c3ccc(Nc4nccc(-c5cccc(N6CCOCC6)c5)n4)cc3)n2)cn1", "tested on": "INS1 cells", "test": "c-jun phosphorylation, inhibitor", "setting": "added: streptozotocin", "measurement": "IC50", "value": "~0.2 µM"}
{"Molecule": "COC[C@@H](NC(C)=O)C(=O)NCc1ccccc1", "tested on": "voltage-gated sodium channel", "test": "peak sodium current, inhibitor, whole-cell patch clamp", "test system": "CAD", "setting": "0 mV from -80 mV holding", "measurement": "IC50", "value": "133 ± 9.8 µM"}
{"Molecule": "leucinostatin F", "tested on": "MDA-MB-453", "test": "sulforhodamine B", "setting": "48 h, LAR subtype TNBC", "measurement": "GI50", "value": "0.0026 ± 0.0006 µM"}
{"Molecule": "N#CCNC(=O)c1cnccc1C(F)(F)F", "tested on": "mAb-19F2 (BALB/c mouse monoclonal antibody)", "test": "antibody binding, indirect competitive ELISA", "measurement": "IC50", "value": "> 1 µg/mL"}
{"Molecule": "CC[C@H](C)[C@H](NC(=O)CNC(=O)[C@H](Cc1c[nH]c2ccccc12)NC(=O)CNC(C)=O)C(=O)N[C@@H](CCCCN)C(N)=O", "test": "DSC", "test system": "SOPC/cholesterol 7/3 bilayers", "setting": "15 mol%, pH 7.40", "measurement": "transition enthalpy", "value": "0.7 kcal/mol"}
{"Molecule": "C=CC=C[C@@H]1CC2=CC(=O)CC[C@]2(C)[C@H]2CC[C@]3(C)[C@@H](O)CC[C@H]3[C@H]12", "tested on": "LNCaP", "test": "cell growth, MTT", "setting": "48 h", "measurement": "IC50", "value": "28.8 µM"}
{"Molecule": "O=C(N/N=C1\\C(=O)Nc2ccc(Cl)cc21)N/N=C1\\C(=O)Nc2ccc(Cl)cc21", "tested on": "Influenza A virus H3N2", "test": "viral replication, visual CPE score", "test system": "MDCK", "measurement": "EC50", "value": "> 100 µM"}
{"Molecule": "CNC(C)Cc1ccc2c(c1)OCO2 (racemic)", "test": "Drug Effects Questionnaire, measured: Feel High", "test system": "human", "setting": "oral, 1.5 mg/kg, mean over session, unit not given", "scale": "baseline: pre-dose baseline", "measurement": "subjective drug effect rating", "value": 43.7}
